# Experimental data from different studies.
# Protocols differ between the studies behind these lines. ± gives the spread as reported.
# Target: ATP-dependent translocase ABCB1 (ABCB1, Homo sapiens, UniProt P08183)
# UniProt P08183, sequence (whole entry, looked up): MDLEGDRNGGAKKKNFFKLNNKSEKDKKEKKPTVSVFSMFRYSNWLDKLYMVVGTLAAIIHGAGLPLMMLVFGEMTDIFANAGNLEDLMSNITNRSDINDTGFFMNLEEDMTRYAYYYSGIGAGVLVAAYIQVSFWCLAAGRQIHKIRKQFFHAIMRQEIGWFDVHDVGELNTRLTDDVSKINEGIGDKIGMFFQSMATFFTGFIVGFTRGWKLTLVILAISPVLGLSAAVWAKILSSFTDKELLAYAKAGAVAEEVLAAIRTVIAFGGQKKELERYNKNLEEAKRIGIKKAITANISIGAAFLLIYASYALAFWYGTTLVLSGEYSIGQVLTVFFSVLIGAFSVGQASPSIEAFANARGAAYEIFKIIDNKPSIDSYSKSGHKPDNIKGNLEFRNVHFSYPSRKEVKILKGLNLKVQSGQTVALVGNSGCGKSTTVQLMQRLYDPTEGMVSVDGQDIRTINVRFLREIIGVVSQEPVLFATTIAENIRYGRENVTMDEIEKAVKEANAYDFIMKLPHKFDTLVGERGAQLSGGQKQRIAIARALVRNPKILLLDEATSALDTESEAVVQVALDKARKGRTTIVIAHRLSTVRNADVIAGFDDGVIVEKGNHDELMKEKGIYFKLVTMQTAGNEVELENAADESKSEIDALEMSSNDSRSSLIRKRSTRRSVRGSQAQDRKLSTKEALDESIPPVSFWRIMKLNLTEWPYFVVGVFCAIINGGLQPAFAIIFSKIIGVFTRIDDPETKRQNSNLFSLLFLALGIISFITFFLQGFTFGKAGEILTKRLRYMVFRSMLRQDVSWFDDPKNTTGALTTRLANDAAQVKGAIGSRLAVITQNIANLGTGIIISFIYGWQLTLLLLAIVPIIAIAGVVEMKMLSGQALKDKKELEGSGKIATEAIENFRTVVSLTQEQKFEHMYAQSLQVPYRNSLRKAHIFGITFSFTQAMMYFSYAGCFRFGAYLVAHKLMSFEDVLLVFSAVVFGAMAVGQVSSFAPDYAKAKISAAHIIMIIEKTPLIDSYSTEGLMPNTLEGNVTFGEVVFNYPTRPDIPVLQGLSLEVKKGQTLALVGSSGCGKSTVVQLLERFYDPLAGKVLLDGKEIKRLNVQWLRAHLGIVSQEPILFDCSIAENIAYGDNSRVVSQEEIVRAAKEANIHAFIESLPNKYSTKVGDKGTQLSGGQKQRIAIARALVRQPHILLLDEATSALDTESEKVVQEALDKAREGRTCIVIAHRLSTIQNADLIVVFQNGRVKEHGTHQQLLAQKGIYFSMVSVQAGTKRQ
Compound,assay,test system,conditions,how to read,quantity,value
CC(C)=CCc1c(OCC2OC2(C)C)ccc2ccc(=O)oc12 (stereo not drawn),"inhibitor, rhodamine 123 retention",COLO 320 and COLO 205,"2 µM, with: rhodamine 123 5.2 µM","reference: COLO 320 over COLO 205, higher = stronger inhibition",fluorescence activity ratio,1.41
CC(=O)OCCc1ccc(O)c(-c2cc(CCOC(C)=O)ccc2O)c1,rhodamine 123 efflux,,10 µM,reference: GF120918 0.5 µM,inhibition,0 ± 1.2%
COc1cc(/C=C/C(=O)c2ccc(Br)cc2)ccc1OCc1ccccc1,"mitoxantrone efflux, flow cytometry",,10 µM,,inhibition,no inhibition
CC(C)CCN(c1nc(C#N)nc(NC2COC2)n1)C(C)c1ccc(F)cc1 (stereo not drawn),,MDCK-MDR1,,,Papp,7.92 ×10⁻⁶ cm/s
OCCc1ccc(O)c(-c2cc(CCO)ccc2O)c1,rhodamine 123 efflux,,50 µM,reference: GF120918 0.5 µM,inhibition,-0.5 ± 1.5%
C[C@H]1C(OC(=O)C(C)(C)C)O[C@@H]2O[C@@]3(C)CC[C@H]4[C@H](C)CCC1[C@@]24OO3 (stereo partly drawn),"calcein-AM efflux, inhibitor, flow cytometry",CEM/ADR5000,"30 min, with: calcein-AM 1 µM",reference: untreated,maximal effect,1780 ± 292%
Cn1ccc2cc(-n3c(=O)[nH]c4sc5c(c4c3=O)CCCC5)ccc21,,MDCK-MDR1,5 µM,,Papp A→B,18 ×10⁻⁶ cm/s
N#Cc1nc(N2CCOCC2)nc(N(Cc2ccc(F)cc2)CC2CCCNC2)n1 (stereo not drawn),substrate,MDCKII-MDR1,"1 µM, 4 h",,Papp A-B,25.9 ×10⁻⁶ cm/s
C[C@H]1C(O)O[C@@H]2O[C@@]3(C)CC[C@H]4[C@H](C)CCC1[C@@]24OO3 (stereo partly drawn),"calcein-AM efflux, inhibitor, flow cytometry",CEM/ADR5000,"30 min, with: calcein-AM 1 µM",reference: untreated,maximal effect,114 ± 10.2%
COc1cc(CCOC(C)=O)cc(-c2cc(CCOC(C)=O)cc(O)c2O)c1O,rhodamine 123 efflux,,10 µM,reference: GF120918 0.5 µM,inhibition,-0.6 ± 1.4%
CCCC(CCC)C(=O)OC1O[C@@H]2O[C@@]3(C)CC[C@H]4[C@H](C)CCC([C@H]1C)[C@@]24OO3 (stereo partly drawn),"calcein-AM efflux, inhibitor, flow cytometry",CEM/ADR5000,"30 min, with: calcein-AM 1 µM",reference: untreated,maximal effect,2220 ± 94.7%
CC(C)C(=O)Cc1c(OCC(O)C(C)(C)O)ccc2ccc(=O)oc12 (stereo not drawn),"inhibitor, rhodamine 123 retention",COLO 320 and COLO 205,"20 µM, with: rhodamine 123 5.2 µM","reference: COLO 320 over COLO 205, higher = stronger inhibition",fluorescence activity ratio,1.85
